Measurements gathered from unrelated publications.
Every numbered part comes from another study and shows a few of its results, in no order.

Study 1
Target: Sal-like protein 4, full length isoform A (SALL4, Homo sapiens, UniProt Q9UJQ4, residues 1-1053)
Sequence of UniProt Q9UJQ4 (whole entry, looked up): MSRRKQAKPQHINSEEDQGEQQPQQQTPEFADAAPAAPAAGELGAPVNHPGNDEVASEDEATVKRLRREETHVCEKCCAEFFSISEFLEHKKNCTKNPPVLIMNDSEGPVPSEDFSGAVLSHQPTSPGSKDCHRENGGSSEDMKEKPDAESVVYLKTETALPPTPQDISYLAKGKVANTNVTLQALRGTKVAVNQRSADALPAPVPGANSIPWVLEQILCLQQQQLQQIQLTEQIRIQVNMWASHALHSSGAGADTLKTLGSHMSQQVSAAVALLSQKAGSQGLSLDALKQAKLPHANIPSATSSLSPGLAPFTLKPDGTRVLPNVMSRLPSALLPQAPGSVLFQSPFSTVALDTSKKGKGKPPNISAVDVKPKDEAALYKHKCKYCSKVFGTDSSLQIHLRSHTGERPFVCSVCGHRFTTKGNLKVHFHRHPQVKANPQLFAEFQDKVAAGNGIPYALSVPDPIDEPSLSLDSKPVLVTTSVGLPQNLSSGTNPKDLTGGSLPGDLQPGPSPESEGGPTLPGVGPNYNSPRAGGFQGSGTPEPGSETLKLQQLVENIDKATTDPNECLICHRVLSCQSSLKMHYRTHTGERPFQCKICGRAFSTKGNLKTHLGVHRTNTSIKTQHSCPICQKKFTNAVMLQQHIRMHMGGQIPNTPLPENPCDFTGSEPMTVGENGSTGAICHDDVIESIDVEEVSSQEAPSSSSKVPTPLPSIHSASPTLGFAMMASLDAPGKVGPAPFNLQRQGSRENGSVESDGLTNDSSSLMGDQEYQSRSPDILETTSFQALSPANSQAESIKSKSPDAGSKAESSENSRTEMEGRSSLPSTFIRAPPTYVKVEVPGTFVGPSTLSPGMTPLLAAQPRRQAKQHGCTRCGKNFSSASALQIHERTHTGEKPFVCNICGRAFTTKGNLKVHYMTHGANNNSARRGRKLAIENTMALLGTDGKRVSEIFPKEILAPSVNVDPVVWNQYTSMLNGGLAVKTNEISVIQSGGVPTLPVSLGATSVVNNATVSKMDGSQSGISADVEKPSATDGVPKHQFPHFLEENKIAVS
Method: universal PBM
Form: double-stranded DNA, one strand shown
Medium: in vitro
Concentration: 600 nM
Setting: 8-mer, flanks averaged, mean of replicates
Direction: higher = stronger binding
Quantity: E-score
Strand = CATCGGGG; value = -0.205
Strand = CGGCCCGA; value = -0.281
Strand = CCATCATC; value = 0.0861
Strand = CGACGTAG; value = -0.172
Strand = CTGAGTGC; value = -0.196
Strand = CTTTGAAA; value = 0.315
Strand = AGCACACC; value = -0.178

Study 2
Target: Histone acetyltransferase KAT6A, winged helix 2, GST fusion (KAT6A, Homo sapiens, UniProt Q92794, residues 85-181)
Method: protein binding microarray
Form: double-stranded DNA, one strand shown
Medium: in vitro
Concentration: not given
Setting: 8-mer, flanks averaged, mean of 2 arrays, mostly near background
Reference: not given
Direction: higher = stronger binding
Quantity: E-score
Residues (chain): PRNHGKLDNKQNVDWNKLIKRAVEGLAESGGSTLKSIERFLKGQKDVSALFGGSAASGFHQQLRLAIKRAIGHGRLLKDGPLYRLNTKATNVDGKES
Strand = CGAGATCC; value = 0.107
Strand = ATGACTGC; value = 0.0242
Strand = CACTTTAG; value = -0.0396
Strand = ACGAACTG; value = -0.0182
Strand = ATTTGGGG; value = 0.00248
Strand = ACCTGACA; value = -0.0677

Study 3
Target: RING finger protein unkempt homolog, zinc fingers 1-6, GST-SBP tag (UNK, Homo sapiens, UniProt Q9C0B0, residues 30-357)
Sequence of UniProt Q9C0B0 (30-357, looked up): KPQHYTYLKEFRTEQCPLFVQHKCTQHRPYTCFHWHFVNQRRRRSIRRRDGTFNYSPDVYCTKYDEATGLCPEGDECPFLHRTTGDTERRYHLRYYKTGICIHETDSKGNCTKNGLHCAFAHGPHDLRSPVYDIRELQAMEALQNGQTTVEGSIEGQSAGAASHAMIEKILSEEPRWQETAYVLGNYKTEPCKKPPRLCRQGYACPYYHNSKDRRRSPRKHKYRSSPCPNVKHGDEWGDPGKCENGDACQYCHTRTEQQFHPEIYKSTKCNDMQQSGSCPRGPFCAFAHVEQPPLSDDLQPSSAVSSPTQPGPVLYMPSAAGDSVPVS
Method: RNA Bind-n-Seq
Form: RNA
Medium: in vitro
Concentration: not given
Setting: RNA with constant flanks, human and mouse sites, ends assumed
Reference: input RNA pool
Direction: higher = stronger binding
Quantity: bound/input enrichment
Strand = GGGAGUUCUACAGUCCGACGAUCGGGGACAGUGUUGGGAUUGUCAAGGAAAAAGGGGUAGGAAGGAAGGUGGAGGGAUUGAUCUAGUACCAGGGAGAAUAUUCCACUGAACUGUGAUUCUAUGGCUUGGGGCGGAGGGUGGGGCAACAGAGGAUUGAGCAUCA; value = 0.52 ratio
Strand = GGGAGUUCUACAGUCCGACGAUCUUCUCCUCUUUCUUUCCUUCCCCUUCACCUUCCCCAUCUAACCCCCAAACAUUAUUGUCCAAACAUGACUGGACAGCAACUUUUGUUUCUUGACCCUGUGGUAUGACAGUCUGCUAAUAUCAACAGAGGAUUGAGCAUCA; value = 1.08 ratio
Strand = GGGAGUUCUACAGUCCGACGAUCGAAAAUUCAAAGGCUGUAAGCAAAGCUACCACUGACUCAGAUAAAGAAAAACUGAUCAUGCUUGUCAGUGAUUUUUAUUAUGGAAGACAUGAAGGAACUAUUGAGGAAAGCCAGAAGACUCAACAGAGGAUUGAGCAUCA; value = 0.131 ratio
Strand = GGGAGUUCUACAGUCCGACGAUCCCGCCUGAAACUCCAGUGAAAGAAAGGCUGUUUGUUGUGUUUAAUCCCCAUCCUUUGCCACUAGACGUGUUGGAGGAUAUAUUCUGCCGUUUUGGGAACCUGAUCGAGGUCUACCUUGUGCAACAGAGGAUUGAGCAUCA; value = 0.104 ratio

Other studies, line by line
Substance = PhoQ, residues 284 288 289 292 302 303 TSTLRA; target = PhoP, residues 12 14 15 18 19 AGCRL (Escherichia coli, UniProt P23836); assay = Sort-seq, refers to: YFP reporter; test system = E. coli; conditions = PhoQ-PhoP variant library, with: 10 µM Mg2+; how to read = reference: high Mg2+ state, higher = stronger signaling; quantity = fold induction; value = 1.36

Excerpt of the above (study 1):
Strand = CATCGGGG; value = -0.205
Strand = CGGCCCGA; value = -0.281
Strand = CCATCATC; value = 0.0861
